{"data": "Measured values of several laboratories", "note": "Each numbered part is a random draw from the data of one study; scales do not carry over between parts. Positions count from the first letter of the parent shown."}
{"data": "Sample 1", "target": "RNA binding protein fox-1 homolog 2, RRM domain, GST-SBP tag (RBFOX2, Homo sapiens, UniProt O43251-10, residues 100-194)", "technique": "RNA Bind-n-Seq", "molecule type": "RNA", "matrix": "in vitro", "tested at": "365 nM", "notes": "natural RNA segment, single round, ends assumed", "baseline": "no-protein control", "reading": "higher = stronger binding", "Construct (chain)": "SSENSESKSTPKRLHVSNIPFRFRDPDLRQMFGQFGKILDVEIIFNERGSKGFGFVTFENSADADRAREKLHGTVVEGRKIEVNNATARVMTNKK"}
{"Sequence": "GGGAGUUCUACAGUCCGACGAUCUUAAGGAAGAAAGAAAGAGGAAAAAAAGAGAGAGAGACUCUCCAGGAGACUGUCUGGUGUCAUGACUGAAUCGCCACCUCUCUGGAAGGUGUACCGUCCUCAGGAAGCCAUGGAAUUCUCGGGUGCCAA", "RBNS enrichment (R)": 1.03}
{"Sequence": "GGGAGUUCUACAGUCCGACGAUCCUUCCAGUACAAAAAUUAAGUGGACUAGACCUCCAGCUGUUGAGCCCCUCCUAGUUCUUCAUCCCACUCCAACUCUUCCCCCUCUCCCAGUUGUCCCGAUUGUAACUCAAUGGAAUUCUCGGGUGCCAA", "RBNS enrichment (R)": 1.31}
{"Sequence": "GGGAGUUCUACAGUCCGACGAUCCCUAAGGAAGCCAGUCACCUUCUGGGCAAGGGCUCCUAUCUUUCCUCCCUAUCCAUGGCACUAAACCACUUCUCUGCUGCCUCUGUGGAAGAGAUUCCUAUUACUGCAGUUGGAAUUCUCGGGUGCCAA", "RBNS enrichment (R)": 0.4}
{"Sequence": "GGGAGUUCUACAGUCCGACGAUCAGCCAGUCUGAAGGCCUGAGCCAGGAGCGCUGUGUGGGUUGCCUGUCUCAGGUCGUUGUCAUUUGCCCUCCCUCCAAUUUUGCUUCCCACCCCCACCACUCUACUGAAAGUGGAAUUCUCGGGUGCCAA", "RBNS enrichment (R)": 0.234}
{"Sequence": "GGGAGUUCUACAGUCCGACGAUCUUUAUAAUCAUAUCCAGUAAACGGCCUUGUGUCAUAGUAAGAUAAAAUGGUAUCUUACUGACUCUGUUUACUUAUGUGUACAAUUCUGGAAAAUAAAUUUUUUUAUUCUAUGGAAUUCUCGGGUGCCAA", "RBNS enrichment (R)": 0.589}
{"Sequence": "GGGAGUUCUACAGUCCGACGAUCGCCUCUGAGAGCAUCAGGCCUAGAGGCCUGACUGCCAAGCCAUGGGUAGCCUGGGUGUAAAACCUGGAGAUGGUGGAUGAUCCCCACGCCACAGCCCUUUUGUCUCUGCAUGGAAUUCUCGGGUGCCAA", "RBNS enrichment (R)": 0.753}
{"Sequence": "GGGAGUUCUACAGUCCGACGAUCAUAGAAACACUACAGGUGUGUGCACACAGCACUCAGGUUGGCAUGUUUGGUGUUGAAAUGGGGUCAUUUCAUUCCAUGUUAUGAAUGCAACCAGAAAGGGUGUCUGGGAUUGGAAUUCUCGGGUGCCAA", "RBNS enrichment (R)": 1.51}
{"Sequence": "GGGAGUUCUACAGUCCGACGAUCGCUGCCCAGUCCAUGGGGACAGAACCGUCACUCAGAUCCACAUUCAAGUGUGCCCACCCUGCAGUCUUCAUCCUCACUCAGCUGCUGCCUCUGGAGGUGCCUUUGGCCACUGGAAUUCUCGGGUGCCAA", "RBNS enrichment (R)": 0.383}
{"Sequence": "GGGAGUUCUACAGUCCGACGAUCCCUGUAUCAGGUGGUUAACCAAGGAAUCCACAUCAACAGGUGGGGCCAUCUUUAAUGUGGGCACCAGAGACUCGGAGCGGUCCUUUUGCUUCAAAGACAGGAGUUCACUGUGGAAUUCUCGGGUGCCAA", "RBNS enrichment (R)": 0.32}
{"Sequence": "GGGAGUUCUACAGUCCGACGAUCUCAUACCAAUCUCUACGGGAAAGAGAGGUAGGAGAGGCUGCGAGGAAGCUUGGGUUCAAGCGUCACUCAUCUGUACAUAGUUGUAACUCCCAUGUGGAGUAUCAGUCGCUUGGAAUUCUCGGGUGCCAA", "RBNS enrichment (R)": 0.461}
{"Sequence": "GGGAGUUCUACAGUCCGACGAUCGGCAAGUCCCCAAACCUCCUUGUGCCUCAGUUUCCCCAUCUGGAAAAAAUGGGGCCACCUCUUGCCAGCAGUAGCAGGGCUGCCCAUGCCCCUUCCUCCCCAUGCCCCAUUGGAAUUCUCGGGUGCCAA", "RBNS enrichment (R)": 0.779}
{"Sequence": "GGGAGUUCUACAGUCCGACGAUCCCUUAACUGGUAUCAAACAGUGUCACUGAGAUAUUUUCAAAGAACACUGAAUUGUAUUUAAUCAGCGUGUAUUCCAUUUGCAUUGAAGCAUUAAAGAUUAUUUUCCUUAAUGGAAUUCUCGGGUGCCAA", "RBNS enrichment (R)": 0.505}
{"data": "Sample 2", "target": "CCNB3, cyclin fold, Cln2 fusion (human)", "technique": "yeast growth competition, sequencing", "matrix": "yeast", "notes": "weak parent motif", "baseline": "not given", "reading": "higher = stronger binding", "starting sequence": "PKN2 docking peptide (human); VSAVQKLDFSDTM; partner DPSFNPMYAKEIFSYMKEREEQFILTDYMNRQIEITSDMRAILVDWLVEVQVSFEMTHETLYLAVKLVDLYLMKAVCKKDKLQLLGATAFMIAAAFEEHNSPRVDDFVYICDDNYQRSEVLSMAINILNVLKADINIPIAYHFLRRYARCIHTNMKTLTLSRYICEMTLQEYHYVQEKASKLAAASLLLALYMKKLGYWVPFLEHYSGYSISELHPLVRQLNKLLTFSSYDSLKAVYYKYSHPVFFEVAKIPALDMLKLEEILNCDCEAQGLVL"}
{"Change": "S10T", "normalised enrichment score": 0.53}
{"Change": "D8S", "normalised enrichment score": 0.472}
{"Change": "D8T", "normalised enrichment score": 0.0952}
{"Change": "V4G", "normalised enrichment score": 0.0765}
{"Change": "M13E", "normalised enrichment score": 0.101}
{"Change": "T12M", "normalised enrichment score": 0.0556}
{"Change": "S10Q", "normalised enrichment score": -0.227}
{"Change": "T12G", "normalised enrichment score": 0.579}
{"Change": "M13C", "normalised enrichment score": -0.0162}
{"Change": "A3Y", "normalised enrichment score": 0.41}
{"Change": "D8G", "normalised enrichment score": 0.159}
{"Change": "V4Y", "normalised enrichment score": 0.172}
{"Change": "D8A", "normalised enrichment score": 0.456}
{"Change": "T12L", "normalised enrichment score": 0.572}
{"Change": "F9Y", "normalised enrichment score": 0.45}
{"Change": "S10C", "normalised enrichment score": 0.112}
{"Change": "V1N", "normalised enrichment score": 0.347}
{"Change": "D11Y", "normalised enrichment score": 0.109}
{"Change": "L7H", "normalised enrichment score": 0.173}
{"Change": "L7W", "normalised enrichment score": 0.341}
{"Change": "V1L", "normalised enrichment score": 0.00929}
{"Change": "A3M", "normalised enrichment score": 0.176}
{"data": "Sample 3", "target": "Fragile X messenger ribonucleoprotein 1, C-terminal low-complexity region (Fmr1, Mus musculus, UniProt P35922)", "technique": "RNA Bind-n-Seq", "molecule type": "RNA", "matrix": "in vitro", "tested at": "200 nM", "notes": "whole 134-nt RNA, ends assumed", "with": "150 mM KCl", "baseline": "input library", "reading": "higher = stronger binding"}
{"Sequence": "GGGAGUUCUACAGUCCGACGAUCAAGUCCUGUGCUACACAUCGUAUGUACCGAAUCGGAAAAAAAGGUUUGGUUUUUGGAAAGUAUUAUGUUACGCCGUUCGGAUCUGCACUUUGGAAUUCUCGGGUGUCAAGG", "log2 enrichment": -1.16}
{"Sequence": "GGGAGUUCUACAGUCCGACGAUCUCCUGUGCUACACAUCGUAUGUACCGAAUCGGGCCCCCGGGGCCCCCGGGCCCCCGGGGAAAGUAUUAUGUUACGCCGUUCGGAUCUGCAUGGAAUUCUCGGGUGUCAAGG", "log2 enrichment": -0.974}
{"Sequence": "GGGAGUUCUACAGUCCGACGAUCCAAGUCCUGUGCUACACAUCGUAUGUACCGAAUCGGUUUUUGGAAAGGAAAAAGGAAAGUAUUAUGUUACGCCGUUCGGAUCUGCACUUCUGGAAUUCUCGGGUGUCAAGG", "log2 enrichment": -0.665}
{"Sequence": "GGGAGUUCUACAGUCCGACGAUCCCUGUGCUACACAUCGUAUGUACCGAAUCGGGUUUUUUGGGGUUUUUUGGGGUUUUUUGGGAAAGUAUUAUGUUACGCCGUUCGGAUCUGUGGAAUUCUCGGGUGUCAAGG", "log2 enrichment": -0.374}
{"Sequence": "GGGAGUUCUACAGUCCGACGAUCGUCCUGUGCUACACAUCGUAUGUACCGAAUCGGGAAAAAAGGGAAAAAAGGAAAAAAGGAAAGUAUUAUGUUACGCCGUUCGGAUCUGCAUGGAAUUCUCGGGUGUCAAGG", "log2 enrichment": -0.576}
{"Sequence": "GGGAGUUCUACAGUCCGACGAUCGCAGGAAGUAAAAACAAAUGGAAAUGCUUCGGAUAGUGGCAGGGGUGGGGGUUGCUAAGGAAAGGGUGGGAUGGGAGUGGGUCAAGAGUUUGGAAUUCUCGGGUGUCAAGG", "log2 enrichment": -0.0369}
{"Sequence": "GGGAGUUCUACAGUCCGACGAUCUCAAGUCCUGUGCUACACAUCGUAUGUACCGAAUCGGUUUUUGGUUUUUGGUGGAAAGUAUUAUGUUACGCCGUUCGGAUCUGCACUUCCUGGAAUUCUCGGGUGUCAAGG", "log2 enrichment": -0.585}
{"Sequence": "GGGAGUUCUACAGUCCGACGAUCCAAGUCCUGUGCUACACAUCGUAUGUACCGAAUCAAAUUUAAAUUUAAAUUUAAAAAAGUAUUAUGUUACGCCGUUCGGAUCUGCACUUCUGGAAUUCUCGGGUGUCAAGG", "log2 enrichment": -0.962}
{"Sequence": "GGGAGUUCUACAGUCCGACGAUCCUCAAGUCCUGUGCUACACAUCGUAUGUACCGAAUCGGGCCGGCCGGGCCGGGGAAAGUAUUAUGUUACGCCGUUCGGAUCUGCACUUCCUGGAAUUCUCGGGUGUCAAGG", "log2 enrichment": -0.201}
{"Sequence": "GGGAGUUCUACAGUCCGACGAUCCAAGUCCUGUGCUACACAUCGUAUGUACCGAAUCGGGGAAAGGGAAAGGGGAAAGGAAAGUAUUAUGUUACGCCGUUCGGAUCUGCACUUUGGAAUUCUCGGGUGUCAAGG", "log2 enrichment": 0.069}
{"data": "Sample 4", "target": "Sal-like protein 4, full length isoform A (SALL4, Homo sapiens, UniProt Q9UJQ4, residues 1-1053)", "technique": "universal PBM", "molecule type": "double-stranded DNA, one strand shown", "matrix": "in vitro", "tested at": "600 nM", "notes": "8-mer, flanks averaged, mean of replicates", "reading": "higher = stronger binding", "chain of UniProt Q9UJQ4 (whole entry, looked up)": "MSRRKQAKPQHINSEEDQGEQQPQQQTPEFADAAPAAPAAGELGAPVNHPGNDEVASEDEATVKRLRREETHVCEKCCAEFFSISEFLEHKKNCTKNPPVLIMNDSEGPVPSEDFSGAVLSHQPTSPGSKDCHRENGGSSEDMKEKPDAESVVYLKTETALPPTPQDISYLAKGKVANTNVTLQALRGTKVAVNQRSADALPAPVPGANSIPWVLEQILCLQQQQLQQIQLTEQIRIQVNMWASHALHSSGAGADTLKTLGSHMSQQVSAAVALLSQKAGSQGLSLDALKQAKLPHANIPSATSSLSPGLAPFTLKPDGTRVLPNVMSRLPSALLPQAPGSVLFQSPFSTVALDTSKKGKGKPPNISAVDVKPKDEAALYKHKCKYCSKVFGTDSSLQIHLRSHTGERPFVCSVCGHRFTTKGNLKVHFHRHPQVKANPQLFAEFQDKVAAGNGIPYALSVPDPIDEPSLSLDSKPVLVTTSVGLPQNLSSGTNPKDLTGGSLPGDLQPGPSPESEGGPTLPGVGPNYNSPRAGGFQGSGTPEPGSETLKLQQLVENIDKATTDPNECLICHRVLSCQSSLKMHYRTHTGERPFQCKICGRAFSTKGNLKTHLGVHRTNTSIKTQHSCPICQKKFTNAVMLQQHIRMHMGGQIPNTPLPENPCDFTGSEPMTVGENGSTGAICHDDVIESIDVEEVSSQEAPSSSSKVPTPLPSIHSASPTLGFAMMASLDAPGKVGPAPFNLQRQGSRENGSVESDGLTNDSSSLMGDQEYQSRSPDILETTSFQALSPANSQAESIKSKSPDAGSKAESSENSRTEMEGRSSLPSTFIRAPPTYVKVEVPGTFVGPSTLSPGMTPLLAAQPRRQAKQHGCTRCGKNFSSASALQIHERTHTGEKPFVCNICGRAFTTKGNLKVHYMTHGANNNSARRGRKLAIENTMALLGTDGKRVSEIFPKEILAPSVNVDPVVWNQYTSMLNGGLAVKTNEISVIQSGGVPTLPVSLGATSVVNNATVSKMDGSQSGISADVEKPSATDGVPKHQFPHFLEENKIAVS"}
{"Sequence": "AAGGCCTT", "E-score": -0.219}
{"Sequence": "ACGCGTTC", "E-score": -0.0829}
{"Sequence": "CAATCTCC", "E-score": -0.0274}
{"Sequence": "ACCTTAAA", "E-score": 0.00411}
{"Sequence": "CATAAGCC", "E-score": 0.165}
{"Sequence": "CACGTTGG", "E-score": -0.113}
{"Sequence": "TCGATACA", "E-score": 0.184}
{"Sequence": "ATCGAACC", "E-score": -0.0129}
{"Sequence": "CCACGATA", "E-score": 0.168}
{"Sequence": "GTGCGCTA", "E-score": -0.151}
{"Sequence": "AGTGATGG", "E-score": 0.00206}
{"Sequence": "GCCACGCA", "E-score": -0.262}
{"Sequence": "CGTAGAAA", "E-score": 0.158}
{"Sequence": "ATGTCGAG", "E-score": -0.0377}
{"Sequence": "ACGTTACA", "E-score": 0.178}
{"Sequence": "ACTTATCC", "E-score": 0.105}
{"Sequence": "ACAGGAAC", "E-score": 0.0152}
{"Sequence": "CATGGGGC", "E-score": -0.279}
{"data": "Single results of other studies"}
{"Substance": "PhoQ, residues 284 288 289 292 302 303 SSCLAV", "target": "PhoP, residues 12 14 15 18 19 NQFFI (Escherichia coli, UniProt P23836)", "test": "Sort-seq, item: YFP reporter", "test system": "E. coli", "setting": "PhoQ-PhoP variant library, with: 10 µM Mg2+", "scale": "baseline: high Mg2+ state, higher = stronger signaling", "quantity": "fold induction", "value": 14.5}
{"note": "Excerpt of the above (sample 2):"}
{"Change": "L7W", "normalised enrichment score": 0.341}
{"Change": "V1N", "normalised enrichment score": 0.347}
{"Change": "D8S", "normalised enrichment score": 0.472}
{"Change": "L7H", "normalised enrichment score": 0.173}
{"Change": "V4Y", "normalised enrichment score": 0.172}
{"Change": "D8A", "normalised enrichment score": 0.456}
{"Change": "T12G", "normalised enrichment score": 0.579}
